Measured values pooled from the literature.
A part holds a random share of what one study measured.
Chain of UniProt Q15418 (whole entry, looked up): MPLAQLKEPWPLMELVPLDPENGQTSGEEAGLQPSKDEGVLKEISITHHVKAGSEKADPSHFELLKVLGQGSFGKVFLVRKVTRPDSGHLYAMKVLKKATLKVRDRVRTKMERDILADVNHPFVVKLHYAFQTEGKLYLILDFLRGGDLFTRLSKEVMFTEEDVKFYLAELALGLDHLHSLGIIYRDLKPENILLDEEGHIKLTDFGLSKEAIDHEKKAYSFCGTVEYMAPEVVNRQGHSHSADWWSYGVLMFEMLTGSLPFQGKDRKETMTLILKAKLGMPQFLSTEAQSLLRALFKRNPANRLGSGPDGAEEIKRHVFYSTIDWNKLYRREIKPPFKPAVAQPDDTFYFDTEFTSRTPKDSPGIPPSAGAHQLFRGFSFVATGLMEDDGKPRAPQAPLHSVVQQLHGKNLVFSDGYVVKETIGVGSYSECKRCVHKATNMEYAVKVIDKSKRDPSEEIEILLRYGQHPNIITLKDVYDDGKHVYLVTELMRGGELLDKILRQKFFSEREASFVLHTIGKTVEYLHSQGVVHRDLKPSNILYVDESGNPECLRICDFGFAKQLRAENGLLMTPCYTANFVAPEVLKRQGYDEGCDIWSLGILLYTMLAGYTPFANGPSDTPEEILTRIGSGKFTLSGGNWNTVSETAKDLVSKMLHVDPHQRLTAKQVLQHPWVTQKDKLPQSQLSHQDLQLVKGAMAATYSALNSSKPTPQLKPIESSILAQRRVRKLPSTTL
Chain of UniProt Q96PY6 (whole entry, looked up): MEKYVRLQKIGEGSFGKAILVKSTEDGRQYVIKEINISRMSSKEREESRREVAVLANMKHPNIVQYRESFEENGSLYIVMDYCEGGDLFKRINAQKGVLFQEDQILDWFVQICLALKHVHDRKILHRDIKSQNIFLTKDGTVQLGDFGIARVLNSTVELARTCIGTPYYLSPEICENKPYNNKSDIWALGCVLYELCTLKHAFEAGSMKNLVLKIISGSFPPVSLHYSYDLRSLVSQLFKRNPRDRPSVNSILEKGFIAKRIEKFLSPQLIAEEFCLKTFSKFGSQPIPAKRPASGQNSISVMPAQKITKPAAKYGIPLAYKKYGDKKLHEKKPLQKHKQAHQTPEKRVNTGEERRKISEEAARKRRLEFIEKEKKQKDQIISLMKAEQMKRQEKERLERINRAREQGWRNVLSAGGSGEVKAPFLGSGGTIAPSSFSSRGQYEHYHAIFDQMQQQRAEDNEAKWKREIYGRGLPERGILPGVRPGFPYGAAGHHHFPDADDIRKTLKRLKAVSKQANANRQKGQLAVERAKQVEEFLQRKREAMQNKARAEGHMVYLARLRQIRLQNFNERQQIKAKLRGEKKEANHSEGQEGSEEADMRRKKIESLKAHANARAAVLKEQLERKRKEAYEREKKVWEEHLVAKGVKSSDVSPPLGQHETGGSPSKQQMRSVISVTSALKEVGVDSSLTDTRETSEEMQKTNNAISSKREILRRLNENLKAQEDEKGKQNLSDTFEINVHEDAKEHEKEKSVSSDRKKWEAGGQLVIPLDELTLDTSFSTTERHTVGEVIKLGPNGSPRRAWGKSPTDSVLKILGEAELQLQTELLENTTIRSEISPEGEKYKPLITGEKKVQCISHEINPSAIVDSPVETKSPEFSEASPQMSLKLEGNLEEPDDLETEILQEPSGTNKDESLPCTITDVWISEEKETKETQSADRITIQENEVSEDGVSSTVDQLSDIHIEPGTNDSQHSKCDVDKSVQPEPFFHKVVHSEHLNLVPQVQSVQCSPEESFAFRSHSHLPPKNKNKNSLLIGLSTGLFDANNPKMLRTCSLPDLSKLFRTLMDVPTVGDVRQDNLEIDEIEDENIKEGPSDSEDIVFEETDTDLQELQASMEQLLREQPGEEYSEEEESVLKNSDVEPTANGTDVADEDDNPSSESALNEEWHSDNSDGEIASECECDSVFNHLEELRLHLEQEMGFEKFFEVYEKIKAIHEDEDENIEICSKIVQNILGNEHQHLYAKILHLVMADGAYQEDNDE
Chain of UniProt P37173 (whole entry, looked up): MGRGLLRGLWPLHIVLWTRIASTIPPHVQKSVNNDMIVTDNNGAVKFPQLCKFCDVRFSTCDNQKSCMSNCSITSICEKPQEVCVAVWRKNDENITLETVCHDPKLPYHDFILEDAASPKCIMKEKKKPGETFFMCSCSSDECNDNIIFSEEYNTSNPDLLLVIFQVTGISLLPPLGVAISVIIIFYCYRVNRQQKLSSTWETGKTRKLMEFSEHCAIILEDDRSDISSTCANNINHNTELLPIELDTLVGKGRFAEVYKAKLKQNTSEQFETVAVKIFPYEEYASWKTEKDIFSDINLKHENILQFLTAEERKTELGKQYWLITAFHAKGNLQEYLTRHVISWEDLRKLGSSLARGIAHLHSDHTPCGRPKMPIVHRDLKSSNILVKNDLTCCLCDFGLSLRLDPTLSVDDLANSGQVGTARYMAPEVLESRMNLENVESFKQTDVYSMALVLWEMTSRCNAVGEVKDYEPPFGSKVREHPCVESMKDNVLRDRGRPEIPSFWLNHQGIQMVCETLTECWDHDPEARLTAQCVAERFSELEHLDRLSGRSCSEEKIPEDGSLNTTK
Chain of UniProt O14936 (whole entry, looked up): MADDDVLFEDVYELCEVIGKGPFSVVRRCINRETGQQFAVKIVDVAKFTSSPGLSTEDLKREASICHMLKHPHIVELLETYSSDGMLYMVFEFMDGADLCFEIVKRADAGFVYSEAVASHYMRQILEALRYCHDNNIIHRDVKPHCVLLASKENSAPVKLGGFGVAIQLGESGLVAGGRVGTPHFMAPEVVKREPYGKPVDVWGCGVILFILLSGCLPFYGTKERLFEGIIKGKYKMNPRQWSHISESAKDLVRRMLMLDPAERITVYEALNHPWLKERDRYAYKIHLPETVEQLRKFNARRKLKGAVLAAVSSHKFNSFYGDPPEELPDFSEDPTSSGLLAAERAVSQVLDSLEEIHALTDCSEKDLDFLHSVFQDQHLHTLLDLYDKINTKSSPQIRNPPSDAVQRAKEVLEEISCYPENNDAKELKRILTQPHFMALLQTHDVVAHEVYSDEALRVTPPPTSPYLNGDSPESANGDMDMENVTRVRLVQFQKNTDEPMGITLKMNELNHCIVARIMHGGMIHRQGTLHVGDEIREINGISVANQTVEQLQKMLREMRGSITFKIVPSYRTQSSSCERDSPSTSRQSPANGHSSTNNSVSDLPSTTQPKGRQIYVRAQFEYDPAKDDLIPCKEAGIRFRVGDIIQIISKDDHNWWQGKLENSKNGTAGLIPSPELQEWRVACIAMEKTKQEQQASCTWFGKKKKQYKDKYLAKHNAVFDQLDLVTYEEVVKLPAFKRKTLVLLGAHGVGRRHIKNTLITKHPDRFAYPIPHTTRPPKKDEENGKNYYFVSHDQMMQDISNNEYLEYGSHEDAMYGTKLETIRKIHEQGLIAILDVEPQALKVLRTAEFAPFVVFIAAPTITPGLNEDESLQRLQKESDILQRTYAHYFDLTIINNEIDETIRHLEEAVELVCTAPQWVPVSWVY
Chain of UniProt P45984 (whole entry, looked up): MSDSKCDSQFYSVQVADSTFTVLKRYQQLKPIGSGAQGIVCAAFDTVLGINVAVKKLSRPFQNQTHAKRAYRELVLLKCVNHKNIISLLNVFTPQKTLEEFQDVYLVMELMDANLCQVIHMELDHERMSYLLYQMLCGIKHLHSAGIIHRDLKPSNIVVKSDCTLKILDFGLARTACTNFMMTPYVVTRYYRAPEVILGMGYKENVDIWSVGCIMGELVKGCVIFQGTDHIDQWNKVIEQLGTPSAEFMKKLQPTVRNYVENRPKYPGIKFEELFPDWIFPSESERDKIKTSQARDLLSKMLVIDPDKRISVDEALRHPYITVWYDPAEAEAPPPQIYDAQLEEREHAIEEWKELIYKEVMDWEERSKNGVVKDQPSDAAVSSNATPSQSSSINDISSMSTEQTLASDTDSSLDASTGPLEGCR

Block 1 — cell line: A-375; concentration: 100 µM; time: 60 h
SMILES	viability [%]
C[C@@H](O[C@H]1OCCN(Cc2nc(O)n(P(=O)(O)O)n2)[C@H]1c1ccc(F)cc1)c1cc(C(F)(F)F)cc(C(F)(F)F)c1	5.14
NC[C@H]1O[C@H](O[C@H]2[C@H](O)[C@@H](O[C@H]3O[C@H](CO)[C@@H](O)[C@H](N)[C@H]3O)[C@H](N)C[C@@H]2N)[C@H](N)C[C@@H]1O	105
Cc1nccn1CC1CCc2c(c3ccccc3n2C)C1=O (centres unmarked)	11.8

Block 2 — organism: Sarcocystis neurona; observed: parasite growth; concentration: 10 µM; time: 96 h; notes: secondary screen
SMILES	inhibition
COCCCC/C(=N\OCCN)c1ccc(C(F)(F)F)cc1	-22.5%
CCOC(=O)[C@H](CCc1ccccc1)N[C@H]1CCc2ccccc2N(CC(=O)O)C1=O	-11.5%
Cc1ccsc1C(=CCCN1CCC[C@@H](C(=O)O)C1)c1sccc1C	-31.4%
CCCCN1CCCC1CNC(=O)c1cc(C#N)c2ccccc2c1OC (centres unmarked)	-32.9%
C=CC1=C(C(=O)O)N2C(=O)[C@@H](NC(=O)/C(=N\OCC(=O)O)c3csc(N)n3)[C@H]2SC1	-7.6%
Cc1cc(NS(=O)(=O)c2ccc(N)cc2)no1	-11.3%
CC[C@H](C)C(=O)O[C@H]1C[C@H](O)C=C2C=C[C@H](C)[C@H](CC[C@@H](O)C[C@@H](O)CC(=O)O)[C@H]21	-13.1%
Cc1cccc(C)c1NC(=O)C(C)N (centres unmarked)	-5.9%

Block 3 — observed: cell-free assay; method: competition with immobilised ligand; concentration: 1 µM
Structure (SMILES): CN(C)c1ncnc(-c2ccc3nc(Nc4cc(CN5CCN(C(=O)CC(F)(F)F)CC5)ccn4)[nH]c3c2)c1Cl
target	remaining binding
Ribosomal protein S6 kinase alpha-1, N-terminal kinase domain (RPS6KA1, Homo sapiens, UniProt Q15418)	100%
Tyrosine-protein kinase receptor Tie-1 (TIE1, Homo sapiens, UniProt P35590)	66%
Peripheral plasma membrane protein CASK (CASK, Homo sapiens, UniProt O14936)	89%
Ribosomal protein S6 kinase alpha-5, N-terminal kinase domain (RPS6KA5, Homo sapiens, UniProt O75582)	100%
Hormonally up-regulated neu tumor-associated kinase (HUNK, Homo sapiens, UniProt P57058)	80%
Fibroblast growth factor receptor 3 (FGFR3, Homo sapiens, UniProt P22607, G697C)	100%
Serine/threonine-protein kinase SIK3 (SIK3, Homo sapiens, UniProt Q9Y2K2)	83%
Interleukin-1 receptor-associated kinase 4 (IRAK4, Homo sapiens, UniProt Q9NWZ3)	39%
Serine/threonine-protein kinase 26 (STK26, Homo sapiens, UniProt Q9P289)	91%
Serine/threonine-protein kinase Nek1 (NEK1, Homo sapiens, UniProt Q96PY6)	88%
Serine/threonine-protein kinase PAK 3 (PAK3, Homo sapiens, UniProt O75914)	81%
Mitogen-activated protein kinase 10 (MAPK10, Homo sapiens, UniProt P53779)	51%
Tyrosine-protein kinase JAK2, JH1 (JAK2, Homo sapiens, UniProt O60674)	44%
TGF-beta receptor type-2 (TGFBR2, Homo sapiens, UniProt P37173)	85%
Mitogen-activated protein kinase kinase kinase 10 (MAP3K10, Homo sapiens, UniProt Q02779)	100%
Phosphatidylinositol 4,5-bisphosphate 3-kinase catalytic subunit alpha isoform (PIK3CA, Homo sapiens, UniProt P42336)	100%
Mitogen-activated protein kinase 9 (MAPK9, Homo sapiens, UniProt P45984)	47%

Block 4 — observed: enzyme activity; mode: inhibitor; concentration: 0.5 µM; baseline: control
Target: Activated CDC42 kinase 1 (TNK2, Homo sapiens, UniProt Q07912)
Chain of UniProt Q07912 (whole entry, looked up): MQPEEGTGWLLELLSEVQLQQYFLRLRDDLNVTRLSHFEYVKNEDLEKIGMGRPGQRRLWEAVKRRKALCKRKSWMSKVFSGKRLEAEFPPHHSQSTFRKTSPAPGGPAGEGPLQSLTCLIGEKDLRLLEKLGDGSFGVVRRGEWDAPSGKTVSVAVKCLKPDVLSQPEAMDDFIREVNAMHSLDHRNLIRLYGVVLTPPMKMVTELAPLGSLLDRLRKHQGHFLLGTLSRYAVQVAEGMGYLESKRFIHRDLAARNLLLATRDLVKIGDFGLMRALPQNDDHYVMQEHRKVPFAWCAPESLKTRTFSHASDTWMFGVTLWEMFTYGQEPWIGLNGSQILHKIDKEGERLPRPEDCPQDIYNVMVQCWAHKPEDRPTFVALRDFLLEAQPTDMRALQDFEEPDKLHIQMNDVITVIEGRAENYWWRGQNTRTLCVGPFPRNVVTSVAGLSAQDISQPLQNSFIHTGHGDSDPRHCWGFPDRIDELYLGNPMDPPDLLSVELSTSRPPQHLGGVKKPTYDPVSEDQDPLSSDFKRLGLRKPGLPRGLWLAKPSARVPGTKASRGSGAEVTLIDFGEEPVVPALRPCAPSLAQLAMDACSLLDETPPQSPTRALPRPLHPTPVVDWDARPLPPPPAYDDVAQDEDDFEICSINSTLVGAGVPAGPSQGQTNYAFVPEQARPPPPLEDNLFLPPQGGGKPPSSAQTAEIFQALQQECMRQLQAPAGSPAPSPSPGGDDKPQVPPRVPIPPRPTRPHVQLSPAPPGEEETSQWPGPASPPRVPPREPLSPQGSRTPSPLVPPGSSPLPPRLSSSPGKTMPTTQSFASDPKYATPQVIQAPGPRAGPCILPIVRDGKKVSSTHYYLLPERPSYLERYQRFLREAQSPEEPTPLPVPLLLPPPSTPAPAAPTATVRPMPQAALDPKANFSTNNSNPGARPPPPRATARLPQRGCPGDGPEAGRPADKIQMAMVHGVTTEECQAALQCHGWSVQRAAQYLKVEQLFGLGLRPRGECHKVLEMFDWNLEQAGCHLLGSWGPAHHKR
Structure (SMILES)	remaining activity [%]
COc1cc2ncnc(Nc3ccc(Oc4ccccc4)cc3)c2cc1OC	49
O=C1NC(=O)C(c2cn(CCCn3ccnc3)c3ccccc23)=C1Nc1ccccc1	65.9
Oc1ccc(-c2nc(-c3ccncc3)c(-c3ccc(F)cc3)[nH]2)cc1	83.2
COc1ccc(C(=O)Nc2sc3c(c2C(N)=O)CCCC3)cc1OC	93.4
O=S(=O)(c1cccc2cnccc12)N1CCCNCC1	89.4
O=c1c2ccccc2[nH]c(=S)n1CCN1CCC(=C(c2ccc(F)cc2)c2ccc(F)cc2)CC1	105
Cc1ccc(NC(=O)c2ccc(CN3CCN(C)CC3)cc2)cc1Nc1nc(-c2cccnc2)cs1	95.7
O=C(CCCc1ccc(-c2ccccc2F)cc1)Nc1ccc(O)cc1	99.2
O=C(O)c1ccc2c3c1cccc3c(=O)n1c3ccccc3nc21	101
Cc1nc(-c2ccccc2)c(-c2ccncc2)o1	97.7
